Measurements of several laboratories.
RET: Proto-oncogene tyrosine-protein kinase receptor Ret (RET, Homo sapiens, UniProt P07949)
UniProt P07949, sequence (whole entry, unmodified, looked up): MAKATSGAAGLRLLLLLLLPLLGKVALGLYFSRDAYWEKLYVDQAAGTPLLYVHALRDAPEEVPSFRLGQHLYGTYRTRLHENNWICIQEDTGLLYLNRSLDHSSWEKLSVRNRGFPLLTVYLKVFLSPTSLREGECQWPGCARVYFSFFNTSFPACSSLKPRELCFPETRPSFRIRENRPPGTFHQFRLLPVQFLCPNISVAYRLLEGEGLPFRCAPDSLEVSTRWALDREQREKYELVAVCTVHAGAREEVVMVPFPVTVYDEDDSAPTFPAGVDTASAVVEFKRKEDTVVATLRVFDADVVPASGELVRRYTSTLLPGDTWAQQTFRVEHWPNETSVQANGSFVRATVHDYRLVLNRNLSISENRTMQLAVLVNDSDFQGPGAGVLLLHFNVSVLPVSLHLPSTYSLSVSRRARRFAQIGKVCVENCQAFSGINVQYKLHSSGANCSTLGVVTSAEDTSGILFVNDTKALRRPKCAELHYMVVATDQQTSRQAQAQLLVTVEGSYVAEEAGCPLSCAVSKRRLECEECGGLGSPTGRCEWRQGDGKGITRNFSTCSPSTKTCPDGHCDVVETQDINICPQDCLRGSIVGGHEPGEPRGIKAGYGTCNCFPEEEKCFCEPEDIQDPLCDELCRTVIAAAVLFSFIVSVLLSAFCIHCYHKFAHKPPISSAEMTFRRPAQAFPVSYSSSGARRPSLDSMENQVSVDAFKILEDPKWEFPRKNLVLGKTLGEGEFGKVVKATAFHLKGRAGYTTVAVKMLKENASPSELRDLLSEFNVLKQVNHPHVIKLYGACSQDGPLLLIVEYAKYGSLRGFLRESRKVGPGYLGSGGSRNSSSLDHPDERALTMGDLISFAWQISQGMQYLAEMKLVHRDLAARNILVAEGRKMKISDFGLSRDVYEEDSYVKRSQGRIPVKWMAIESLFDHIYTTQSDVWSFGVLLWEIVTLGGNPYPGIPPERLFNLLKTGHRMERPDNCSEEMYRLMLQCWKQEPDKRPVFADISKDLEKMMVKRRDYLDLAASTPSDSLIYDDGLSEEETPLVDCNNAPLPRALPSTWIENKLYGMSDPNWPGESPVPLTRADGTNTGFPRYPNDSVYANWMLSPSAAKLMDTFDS

| Compound | target | test | setting | scale | measurement | value |
| --- | --- | --- | --- | --- | --- | --- |
| CS(C)(=O)=Nc1ccc(-c2ccc(-c3nc4cc(O[C@@H]5CO[C@H]6[C@@H]5OC[C@H]6O)[nH]c4cc3F)cc2)cc1 | RET | enzyme activity, inhibitor | 10 µM |  | inhibition | 12% |
| CN(/N=C/c1ccccc1C(=O)O)c1nc(-c2ccccc2Cl)cs1 | RET | enzyme activity, inhibitor | 1 µM |  | inhibition | -8.14% |
| CC(C)[C@H]1NC(=O)C[C@H]2/C=C/CCSSC[C@@H](NC1=O)C(=O)N[C@H](Cc1cccc3ccccc13)C(=O)NCC(=O)O2 | Proto-oncogene tyrosine-protein kinase receptor Ret (RET, Homo sapiens, UniProt P07949, S891A) | enzyme activity, inhibitor | 10 µM |  | inhibition | -3.8% |
| CCOC(=O)[C@@H]1Cc2c(cc([N+](=O)[O-])cc2[N+](=O)[O-])[C@H](O)[C@]12C(=O)Nc1ccc(Br)cc12 | RET | binding, competition with immobilised ligand | 0.1 µM |  | remaining binding | 40% |
| O=C1NC(=O)c2c1c1cc(F)c[n+]3c1c1c2c2cc(O)ccc2[n]1[Ru-4]312([N]=C=S)[S+]3CC[S+]1CC[S+]2CC3 (centres unmarked) | RET | enzyme activity | 100 nM, human enzyme, added: 10 µM ATP | reference: untreated | remaining activity | 9% |
| O=C(N[C@@H]1c2ccccc2C[C@H]1N1CCCC1)c1ccc(-c2ccnc3[nH]ccc23)nc1 | RET | binding, competition with immobilised ligand | 3 µM |  | remaining binding | 9% |
| C[C@H](NCc1ccc(-c2ccc(C(F)(F)F)cc2)cc1)C(N)=O | RET | cell-free assay, competition with immobilised ligand | 1 µM |  | inhibition | 13% |
| Nc1ccc(/C=C/C(=O)N2CCc3c(oc4c(-c5ccc(F)cc5)cc(-c5ccc(C(=O)N6CCC(F)(F)CC6)cn5)cc34)C2)cn1 | RET | binding, competition with immobilised ligand | 1 µM |  | remaining binding | 96% |
